Experimental data of several laboratories.
Parts stem from different laboratories: compare values within a part only. Substitutions count along the parent as printed.

Series 1 — technique: protein-binding microarray; molecule type: double-stranded DNA, one strand shown; medium: in vitro; concentration: not given; direction: higher = stronger binding
Target: Protein C-ets-1 (ETS1, Homo sapiens, UniProt P14921, residues 1-441, K379A, full length assumed)
Sequence of UniProt P14921 (whole entry, unmodified, looked up): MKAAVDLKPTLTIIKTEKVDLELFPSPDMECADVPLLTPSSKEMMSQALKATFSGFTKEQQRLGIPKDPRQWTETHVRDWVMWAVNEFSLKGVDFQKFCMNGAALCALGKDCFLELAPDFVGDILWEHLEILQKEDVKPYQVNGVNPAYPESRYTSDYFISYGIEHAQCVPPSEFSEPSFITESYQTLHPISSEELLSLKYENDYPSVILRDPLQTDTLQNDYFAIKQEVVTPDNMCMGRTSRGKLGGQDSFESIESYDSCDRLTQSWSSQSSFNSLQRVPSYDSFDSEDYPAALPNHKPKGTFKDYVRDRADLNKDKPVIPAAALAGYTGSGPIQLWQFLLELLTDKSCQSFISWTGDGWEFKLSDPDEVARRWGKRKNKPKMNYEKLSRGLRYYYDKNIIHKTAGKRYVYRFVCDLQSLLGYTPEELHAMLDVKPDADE
Notes: k-mer, scored over probes, only values ≥0.25
| Sequence | E-score |
| --- | --- |
| CCCCTCCA | 0.271 |
| CCGGCCGA | 0.336 |
| CCGGAAGA | 0.395 |
| CCGGTAAG | 0.422 |
| ACCACAAC | 0.259 |
| CCCATATA | 0.254 |
| ATGTGTTG | 0.251 |
| ATCCGGAT | 0.305 |
| GTGTGTAA | 0.263 |
| ACATATTC | 0.272 |
| CAACCGGC | 0.338 |
| CCGGGGGA | 0.408 |
| ATATGACA | 0.259 |
| GTCCCGGA | 0.261 |
| TGCAACAA | 0.257 |
| GGATGTAA | 0.27 |
| TCACACCA | 0.263 |
| CGAATATA | 0.261 |
| AATACCGG | 0.445 |
| ATAATACC | 0.357 |
| CCGGGAGG | 0.343 |
| ATGCCGGC | 0.271 |
| CCGGATTA | 0.264 |
| AGCTTCCG | 0.254 |
| TGCAGGAA | 0.302 |

Series 2 — technique: RNA Bind-n-Seq; molecule type: RNA; medium: in vitro; concentration: 200 nM; notes: whole 134-nt RNA, ends assumed; together with: 150 mM KCl; relative to: input library; direction: higher = stronger binding
Target: Ras GTPase-activating protein-binding protein 1, full length (G3BP1, Homo sapiens, UniProt Q13283)
Sequence of UniProt Q13283 (whole entry, looked up): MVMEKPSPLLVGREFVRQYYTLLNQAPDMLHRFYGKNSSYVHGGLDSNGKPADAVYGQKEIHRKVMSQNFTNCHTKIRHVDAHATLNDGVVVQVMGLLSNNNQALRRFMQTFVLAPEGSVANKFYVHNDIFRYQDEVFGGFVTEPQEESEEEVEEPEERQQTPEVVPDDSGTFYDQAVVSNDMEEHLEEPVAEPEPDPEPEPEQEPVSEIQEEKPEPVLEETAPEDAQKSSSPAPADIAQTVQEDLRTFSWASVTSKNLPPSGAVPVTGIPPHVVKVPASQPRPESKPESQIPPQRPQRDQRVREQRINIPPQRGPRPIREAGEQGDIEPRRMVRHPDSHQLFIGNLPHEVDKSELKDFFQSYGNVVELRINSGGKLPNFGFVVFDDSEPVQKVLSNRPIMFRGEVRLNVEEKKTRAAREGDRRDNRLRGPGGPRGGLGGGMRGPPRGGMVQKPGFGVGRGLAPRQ
Constant ends, left off below: GGGAGUUCUACAGUCCGACGAUC … UGGAAUUCUCGGGUGUCAAGG
| Sequence | log2 enrichment |
| --- | --- |
| CUGUGCUACACAUCGUAUGUACCGAAUCGGGUUUUUUUGGGUUUUUUUGGUUUUUUUGGGGAAAGUAUUAUGUUACGCCGUUCGGAUCUG | -1.12 |
| UCCUGUGCUACACAUCGUAUGUACCGAAUCGGGCCCCCGGGCCCCCGGGGCCCCCGGGGAAAGUAUUAUGUUACGCCGUUCGGAUCUGCA | -1.02 |
| UGGCUGGCUGUGGCCUCACAGCUGAGGACUGCAAGGACCUUGCCUUUGGGCUGAGAGCCAACCAGACCCUGACCGAGCUGGACCUGAGCU | -2.06 |
| AGUCCUGUGCUACACAUCGUAUGUACCGAAUCGGUUUUUGGUUUUUGGGUUUUUGGGGAAAGUAUUAUGUUACGCCGUUCGGAUCUGCAC | -0.977 |
| AGUCCUGUGCUACACAUCGUAUGUACCGAAUCGGGUUUUUGGGUGGGAAAAAAAGGGAAAGUAUUAUGUUACGCCGUUCGGAUCUGCACU | -0.359 |
| CAAGUCCUGUGCUACACAUCGUAUGUACCGAAUCGGGGCCCGGGCCCGGGCCCGGAAAGUAUUAUGUUACGCCGUUCGGAUCUGCACUUC | -0.158 |
| CUCAAGUCCUGUGCUACACAUCGUAUGUACCGAAUCGGAGGAAAAAAAGGUGGAAAGUAUUAUGUUACGCCGUUCGGAUCUGCACUUCCA | -0.388 |
| CACAGACAACACGCACCCACACAGACACAGAGGGAAGGGGUUGGGAUGGGGACAGGGUGCACAGCAGGGCGGGGUAGGACCCCCGCCCCU | 1.92 |
| UAACUUUAGAGGAGGAUCUGAUGGAUAUGGCAGUGGACGUGGAUUAGGGGAUGGCUAUAAUGGGUAUGGAGGAGGACCUGGAGGUGGCAA | 0.341 |

Series 3 — target: ATF7, bZIP domain (human); technique: DHFR protein complementation; medium: yeast; relative to: wild-type JUN-FOS pair; direction: higher = stronger binding
Notes: single substitutions, most at no-binding floor
Starting sequence: JUN, bZIP domain (human); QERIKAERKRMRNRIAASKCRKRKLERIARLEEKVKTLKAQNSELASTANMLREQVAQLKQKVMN; partner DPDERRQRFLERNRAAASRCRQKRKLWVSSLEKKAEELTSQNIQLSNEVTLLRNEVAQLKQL
| Substitution | binding fitness [natural log] |
| --- | --- |
| S43W | -1.12 |
| R30P | -1.3 |
| E54I | -1.14 |
| A49V | -1.04 |
| M51V | -1.04 |
| K36W | -1.32 |
| L31M | -1.18 |
| N42G | -1.4 |
| S43F | -0.957 |
| K34W | -1.02 |
| K39M | -1.04 |
| R53K | -1.04 |
| V56R | -1.24 |
| A57G | -1.18 |
| E32C | -0.971 |
| A57W | -1.25 |
| M51D | -0.858 |
| T37C | -0.767 |
| A40C | -1.21 |

Series 4 — technique: RNA Bind-n-Seq; molecule type: RNA; medium: in vitro; concentration: 365 nM; relative to: no-protein control; direction: higher = stronger binding
Target: RNA binding protein fox-1 homolog 2, RRM domain, GST-SBP tag (RBFOX2, Homo sapiens, UniProt O43251-10, residues 100-194)
Notes: natural RNA segment, single round, ends assumed
Constant ends, left off below: GGGAGUUCUACAGUCCGACGAUC … UGGAAUUCUCGGGUGCCAA
Construct (chain): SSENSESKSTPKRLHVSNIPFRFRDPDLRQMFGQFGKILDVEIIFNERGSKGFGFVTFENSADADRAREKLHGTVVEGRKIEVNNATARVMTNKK
| Sequence | RBNS enrichment (R) |
| --- | --- |
| UGUGACUUCUGGGAAGGCGCUCCCUCAUCUGGGCCAAAGGAAGGAGGACGAAGCCCUCCUCAGCUGGCCUGUGUUUGGGGCAUGAAUCUCUCCUCUCCUCCUUGUCUGGC | 0.228 |
| CCGAAGUCAGCCUGCUCUACUACUAACAAACAGGCCUGCUGCUAGAUGAUCUCUAAUGACCAAUGGGGCUUCCUUUCUAUAGGGAGGAUACCAGCAGGCCCUUAAGCCUU | 0.331 |
| GGCGUGAGCCACCGCACCCGGCCUCAAAUGGAAAUAUUUCACAGAGGAGUGGUUCAGUUUAGCCCUGCAAGACAUCUAUAACUUGACUGUUUGCUAAACCACAACUCUUU | 0.25 |
| UUGUAUUUGACUAUUUAAUCCUUUCUACUUGUCGCUAAAUAUAAUUGUUUUAGUCUUAUGGCAUGAUGAUAGCAUAUGUGUUCAGGUUUAUAGCUGUUGUGUUUAAAAAU | 0.69 |
| GCAUGUACCACAAAACAGUAGUACUUUAACCCCUAAUGCCACGUCUCCCCAUCAGCUGCCGGUUUUGUCUUUAACCUGCUAUCAUCUCUUCUCCUGCCCCUCCCUCCCCA | 5.72 |
| UCCAGCUCAGUCCACUGGAAUUGUAUUAGGUUUUGUUUUUUUUUGUUUAUUCCCUUUUCACUGGUCCCGUUCGUGAAUGAGUGAAUAUAAGAAGCCUGUCAGUAUUGCCA | 0.922 |
| UGCAGUGCUCCCCAGUGCAGUCCUGUAAUCUGCAGCAGGGAGCACGUCCUCUGCUCUCUGCUAUGUGGUUAUUCUAAACGUCACUGGCCAGGGGACUCGCCUACUGAGAG | 0.208 |
| UUACUAAUUUGAUGUAUGGUUUCACAGUCUAGCAUACUGUCCUUUGACAUCUGCCUUUAAGACUUGGCUGAGUGUCUCAUUAGUUUAUCAUCACAGAUACGCAGUGUUAU | 0.459 |

Series 5 — technique: protein binding microarray; molecule type: double-stranded DNA, one strand shown; medium: in vitro; concentration: not given; relative to: not given; direction: higher = stronger binding
Target: Histone acetyltransferase KAT6A, winged helix 2, GST fusion (KAT6A, Homo sapiens, UniProt Q92794, residues 85-181)
Notes: 8-mer, flanks averaged, mean of 2 arrays, mostly near background
Target sequence (chain): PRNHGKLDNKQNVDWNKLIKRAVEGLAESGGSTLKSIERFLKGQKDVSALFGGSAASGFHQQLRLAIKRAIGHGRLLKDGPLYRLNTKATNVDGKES
| Sequence | E-score |
| --- | --- |
| CGAGATTC | 0.0691 |
| ATCGCCCA | 0.0249 |
| AGAACCCA | -0.036 |
| GTGCATAA | 0.141 |
| TCATGAGA | -0.0761 |
| AATAAGTA | -0.119 |
| ATTTGATG | 0.0714 |
| GGTTGACA | -0.0951 |
| CGGCAAAA | -0.0417 |
| GACGTCGA | 0.0501 |
| CCTTTGCC | -0.0747 |
| TCCGTGCA | 0.0425 |
| ATGATTTC | -0.0366 |
| ACGACGAA | 0.0888 |
| ATTACCGG | -0.0953 |
| CCTCGGAC | 0.0212 |
| AGCCCGAC | 0.0964 |
| AATGTCCG | -0.0125 |

Repeated from above (series 3):
| Substitution | binding fitness [natural log] |
| --- | --- |
| S43W | -1.12 |
| R30P | -1.3 |
| E54I | -1.14 |
| A49V | -1.04 |
| M51V | -1.04 |
| K36W | -1.32 |
| L31M | -1.18 |
| N42G | -1.4 |
| S43F | -0.957 |
| K34W | -1.02 |
| K39M | -1.04 |
